Published values from different studies.
A part holds a random share of what one study measured.

Set 1 — method: RNA Bind-n-Seq; form: RNA; medium: in vitro; concentration: 20 nM; notes: 6-mer, flanks averaged, single round; added: 150 mM LiCl; reference: input library; reading: higher = stronger binding
Target: TAR DNA-binding protein 43, full length, His tag (TARDBP, Homo sapiens, UniProt Q13148, residues 1-414)
`UGAUCC` — result for “6-mer enrichment (R)”: 0.877.
For `GUUAUG`, “6-mer enrichment (R)” read 1.27.
`AUAUAU` — result for “6-mer enrichment (R)”: 1.
`UAAGUG` — result for “6-mer enrichment (R)”: 1.16.
`ACGCGG` — result for “6-mer enrichment (R)”: 0.942.
Under “6-mer enrichment (R)”, `UAAGGU` is recorded as 0.982.
`GAAUUC`: “6-mer enrichment (R)” 0.918.
Under “6-mer enrichment (R)”, `AGAAGC` is recorded as 0.898.
For `AACGUA`, “6-mer enrichment (R)” read 0.843.
`UGACAG` — result for “6-mer enrichment (R)”: 0.903.
`UAACCC`: “6-mer enrichment (R)” 0.958.
`GUCAUG` — result for “6-mer enrichment (R)”: 0.976.
For `GGUAUA`, “6-mer enrichment (R)” read 1.01.
Under “6-mer enrichment (R)”, `GGCCAA` is recorded as 0.931.
`GACGUU`: “6-mer enrichment (R)” 0.911.
`AAAUUG`: “6-mer enrichment (R)” 0.962.
For `ACAAGC`, “6-mer enrichment (R)” read 0.834.
Under “6-mer enrichment (R)”, `UUGCUU` is recorded as 1.11.
`AAGUUU`: “6-mer enrichment (R)” 1.01.
`CGGAGG`: “6-mer enrichment (R)” 1.08.
`AAGCAA` — result for “6-mer enrichment (R)”: 0.848.
`AGUAGA`: “6-mer enrichment (R)” 0.991.
For `ACAAUA`, “6-mer enrichment (R)” read 1.04.
`GCAAAC`: “6-mer enrichment (R)” 0.841.
`CUAUCU`: “6-mer enrichment (R)” 0.891.

Set 2 — method: RNA Bind-n-Seq; form: RNA; medium: in vitro; concentration: 365 nM; reference: no-protein control; reading: higher = stronger binding
Target: RNA binding protein fox-1 homolog 2, RRM domain, GST-SBP tag (RBFOX2, Homo sapiens, UniProt O43251-10, residues 100-194)
Notes: natural RNA segment, single round, ends assumed
Target sequence (chain): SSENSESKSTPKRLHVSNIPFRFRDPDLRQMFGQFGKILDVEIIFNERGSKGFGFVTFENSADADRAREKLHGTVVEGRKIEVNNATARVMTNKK
Under “RBNS enrichment (R)”, `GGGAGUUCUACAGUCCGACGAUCUGUGUUCUAUACAUUGUGAAUCUUCCCGUCUGAAGAACGCCCAGCCUGCCCAGACAAAGCCCCGCCUUCCCCAAAGCAGAGGGGCUGUCUGUGUCUCCAGAAAGGGGACAUGGAAUUCUCGGGUGCCAA` is recorded as 0.185.
`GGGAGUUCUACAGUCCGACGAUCGGAAGCUCUCCGUUGUCUUUCAGUGAUACCCUCUUCCUUGCUUAAUUUGCUCUGAAAAGAAGCACAGUUGGGUAGACGAGGCCCGUGGAUGUCAUUUUUUUUUUUCUGGGUGGAAUUCUCGGGUGCCAA` — result for “RBNS enrichment (R)”: 0.32.
Under “RBNS enrichment (R)”, `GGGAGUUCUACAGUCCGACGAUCGAGCACGCUGGAGCACAUCCUGUCCCAUGAGGGAGGAGGAGGAGCGUUGGCCUAACACUGGCUGUUUCGAUAGUGUGGGGGCUACAUGUGCCUGUAGGGGUCAGGCCUUGUGGAAUUCUCGGGUGCCAA` is recorded as 0.743.
`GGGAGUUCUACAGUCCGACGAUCGCCUGGUCUGUAUUUAAAGCUUUUGAGACCCAAUAAAAUAGUACCUGCUGUCUGCAGCCUUACUGUCGUGGUGGAGCCAGAACACUGUGUUCCUGACCCCAGCCAGGGGGUGGAAUUCUCGGGUGCCAA`: “RBNS enrichment (R)” 0.312.
`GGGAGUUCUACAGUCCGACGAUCGGAGGGCCUAGGUGGUAUCUCCGGCCCAGAUGUGAAUACCUCCAUAUUCCCUGUUGGUUCCUGUUUCACUGGCUGUUUUAGCUUUGUGUUGAUUGGUGUUUCUGAGCAUUUGGAAUUCUCGGGUGCCAA`: “RBNS enrichment (R)” 0.28.
`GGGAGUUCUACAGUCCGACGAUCUGGAUCCAGAUUUUAUGUUAACAUGGCAGCAAAACUAGGAAAAUGGGAAGAAAUUACUUGCGGGGUGUUCUAGAUCUGAUUUUUUUUUUUUUUUUGAAAGUUUCAGCCUGUGGAAUUCUCGGGUGCCAA`: “RBNS enrichment (R)” 1.
For `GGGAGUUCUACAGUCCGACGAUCGCAUUUCUCUGCAGGAUACCAGUUCAGGCCCCACCAUUCCUGCCAAGGCCAUUACAUCCCACAAACCCAAAUACAAAGCAGCUGACUUCCCUGGAUCUUCCCCCCACUCCUGGAAUUCUCGGGUGCCAA`, “RBNS enrichment (R)” read 1.7.
`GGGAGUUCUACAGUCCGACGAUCCUCCAAGCCCGGCAGGCAUCCCCUGCCUGGAAGUGACCACAGUGAGAGCUGCCUUAUAUUCCUACAUUCCAGGCCAGAACCAGCACAGGACUGAACACAUCCCUGGUUGUUGGAAUUCUCGGGUGCCAA`: “RBNS enrichment (R)” 0.307.
Under “RBNS enrichment (R)”, `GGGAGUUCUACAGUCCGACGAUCCUGUAUGUUGGAUGACUUUAAUGCUACAUUUUAAAAAAAGAAAAUAAAGUAAUAAUAUAACUCAAAAUGGUUUUUGUGGUUUCUAAAUCUUUGAAAGCAGUGGCAUCAUGUGGAAUUCUCGGGUGCCAA` is recorded as 0.728.
`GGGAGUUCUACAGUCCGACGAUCCGCUCGGUGGAGGGACGCGUGCGGCGGGACGGUGCCUACGGGUACUUGCAGCUGUGUCCCAUGUGGCAUCCCAGAGCUGCGCCCUGCUGGUCUCUGUGAGCGCCACGCUGUGGAAUUCUCGGGUGCCAA` — result for “RBNS enrichment (R)”: 0.274.
For `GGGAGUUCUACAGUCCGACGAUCAAGGACUCUUAAGCGUGAGGCCAAGGAGCCACGUCCCUUCCCAGUCUGCCUGGCCCAGGGGGGCUGCCCCCAUUCCUGGAGCCCAGGGGCCCAGCUUGCAAUUGCUAGUGUGGAAUUCUCGGGUGCCAA`, “RBNS enrichment (R)” read 0.255.
`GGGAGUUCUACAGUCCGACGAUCAAAGUUUUCCUUUGUAAUCACUCCCAUUUUUACUUAACAACCAACUUGUUGUGGCUCUUAUUUCUGAAUUCAAAGCUUGUGAAAAAAUAAAGAAAAUGAACUGCCCACUGUGGAAUUCUCGGGUGCCAA` — result for “RBNS enrichment (R)”: 1.28.

Set 3 — method: universal PBM; form: double-stranded DNA, one strand shown; medium: in vitro; concentration: 600 nM; reading: higher = stronger binding
Target: Sal-like protein 4, full length isoform A (SALL4, Homo sapiens, UniProt Q9UJQ4, residues 1-1053)
UniProt Q9UJQ4, sequence (whole entry, looked up): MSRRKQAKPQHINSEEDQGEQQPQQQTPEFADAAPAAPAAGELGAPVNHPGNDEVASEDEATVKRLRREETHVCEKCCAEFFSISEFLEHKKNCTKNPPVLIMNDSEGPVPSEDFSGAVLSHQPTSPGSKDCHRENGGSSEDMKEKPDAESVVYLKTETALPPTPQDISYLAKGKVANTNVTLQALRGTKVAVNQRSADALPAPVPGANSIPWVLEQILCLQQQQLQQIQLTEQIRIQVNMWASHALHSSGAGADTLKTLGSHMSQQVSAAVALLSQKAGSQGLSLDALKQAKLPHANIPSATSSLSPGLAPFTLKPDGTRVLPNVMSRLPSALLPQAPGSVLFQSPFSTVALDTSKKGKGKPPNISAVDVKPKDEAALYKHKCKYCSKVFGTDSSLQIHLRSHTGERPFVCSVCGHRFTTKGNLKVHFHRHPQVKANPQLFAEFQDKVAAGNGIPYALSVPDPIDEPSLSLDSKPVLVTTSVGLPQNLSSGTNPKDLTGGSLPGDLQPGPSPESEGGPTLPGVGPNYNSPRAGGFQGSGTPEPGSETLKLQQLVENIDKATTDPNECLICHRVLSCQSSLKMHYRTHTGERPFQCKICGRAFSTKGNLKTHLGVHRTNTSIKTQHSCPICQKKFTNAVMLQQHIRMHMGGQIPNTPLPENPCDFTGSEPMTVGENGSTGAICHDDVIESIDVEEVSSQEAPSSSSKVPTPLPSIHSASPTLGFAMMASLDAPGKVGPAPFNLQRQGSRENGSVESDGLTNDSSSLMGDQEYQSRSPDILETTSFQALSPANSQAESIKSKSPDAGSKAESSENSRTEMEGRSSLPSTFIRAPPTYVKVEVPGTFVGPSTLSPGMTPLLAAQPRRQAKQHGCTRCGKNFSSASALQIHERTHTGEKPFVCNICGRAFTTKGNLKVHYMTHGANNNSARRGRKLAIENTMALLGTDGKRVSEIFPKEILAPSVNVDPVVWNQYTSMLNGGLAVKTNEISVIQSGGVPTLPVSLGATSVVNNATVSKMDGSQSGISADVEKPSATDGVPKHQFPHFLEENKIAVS
Notes: 8-mer, flanks averaged, mean of replicates
The E-score of `GAGGGACA` is reported as -0.209.
`TCAGTACA` gave an E-score of 0.181.
With `CTATCATA` the E-score was 0.275.
With `GGATACAC` the E-score was -0.119.
The E-score of `GATGGTCC` is reported as -0.307.
For `AGCGGAGA`, the E-score was -0.0556.
With `AGTGCCAC` the E-score was -0.228.
For `AGAGTTCA`, the E-score was -0.0428.
With `TAGCTATA` the E-score was 0.261.
For `AGCTCAAA`, the E-score was 0.126.
`ACGTAAGT` has an E-score of 0.0966.
`AAAGTGTA` has an E-score of 0.234.
`AAGGTCAA` gave an E-score of 0.0755.
`CGATTCTA` gave an E-score of 0.0479.
For `CTCCCGCC`, the E-score was -0.249.
The E-score of `AAGCCAAG` is reported as -0.192.
With `CATGGAAA` the E-score was 0.256.
With `CATGAGAG` the E-score was -0.111.
With `AGACTCAT` the E-score was 0.123.
The E-score of `AAGGAGCT` is reported as 0.0322.
For `GACAAATA`, the E-score was 0.271.
`TAAGGGGA` has an E-score of -0.0532.
The E-score of `ATGGGTAA` is reported as 0.175.
`ATTCCCGC` gave an E-score of 0.0236.
`GAGGGTAC` has an E-score of -0.258.

Set 4 — method: protein binding microarray; form: double-stranded DNA, one strand shown; medium: in vitro; concentration: not given; reference: not given; reading: higher = stronger binding
Target: Histone acetyltransferase KAT6A, both winged helices, GST fusion (KAT6A, Homo sapiens, UniProt Q92794, residues 1-181)
Notes: 8-mer, flanks averaged, mean of 2 arrays, mostly near background
Construct (chain): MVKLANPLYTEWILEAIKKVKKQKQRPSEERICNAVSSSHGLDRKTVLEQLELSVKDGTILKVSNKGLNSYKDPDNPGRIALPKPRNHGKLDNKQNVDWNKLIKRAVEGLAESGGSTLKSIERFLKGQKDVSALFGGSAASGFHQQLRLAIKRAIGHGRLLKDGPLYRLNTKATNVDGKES
The E-score of `AATACTAT` is reported as -0.0832.
With `AGTCATAA` the E-score was -0.117.
For `ATAAACTG`, the E-score was -0.0898.
With `ACACCGGG` the E-score was 0.212.
For `AGCTCTCG`, the E-score was -0.0951.
`TCTTTAAA` has an E-score of -0.113.
With `ATGAAGGC` the E-score was 0.0332.
`ACGGTCCA` has an E-score of 0.077.
`AACGTAAA` gave an E-score of -0.103.
For `AACTCCAG`, the E-score was -0.0428.
The E-score of `CATACGAC` is reported as -0.126.
`AGTGTTAC` gave an E-score of -0.0925.
`CCATTACC` has an E-score of -0.0367.
`CCTGCCAG` has an E-score of -0.163.
`CCGTACTC` has an E-score of 0.106.
With `CCTACCAA` the E-score was -0.233.
The E-score of `CATATTGA` is reported as -0.167.
`GATACTGA` has an E-score of 0.162.

Repeated from above (set 1):
`CGGAGG`: “6-mer enrichment (R)” 1.08.
`UGACAG` — result for “6-mer enrichment (R)”: 0.903.
`AAGCAA` — result for “6-mer enrichment (R)”: 0.848.
Under “6-mer enrichment (R)”, `AGAAGC` is recorded as 0.898.
`ACGCGG` — result for “6-mer enrichment (R)”: 0.942.
`UAAGUG` — result for “6-mer enrichment (R)”: 1.16.
For `GUUAUG`, “6-mer enrichment (R)” read 1.27.
Under “6-mer enrichment (R)”, `UUGCUU` is recorded as 1.11.
`GACGUU`: “6-mer enrichment (R)” 0.911.
`AAGUUU`: “6-mer enrichment (R)” 1.01.
`UAACCC`: “6-mer enrichment (R)” 0.958.
Under “6-mer enrichment (R)”, `GGCCAA` is recorded as 0.931.
